Experimental data from different studies.
Compare with care: the assays were run in different laboratories. Numbers after ± are the reported error.
Chain of UniProt P54756 (whole entry, looked up): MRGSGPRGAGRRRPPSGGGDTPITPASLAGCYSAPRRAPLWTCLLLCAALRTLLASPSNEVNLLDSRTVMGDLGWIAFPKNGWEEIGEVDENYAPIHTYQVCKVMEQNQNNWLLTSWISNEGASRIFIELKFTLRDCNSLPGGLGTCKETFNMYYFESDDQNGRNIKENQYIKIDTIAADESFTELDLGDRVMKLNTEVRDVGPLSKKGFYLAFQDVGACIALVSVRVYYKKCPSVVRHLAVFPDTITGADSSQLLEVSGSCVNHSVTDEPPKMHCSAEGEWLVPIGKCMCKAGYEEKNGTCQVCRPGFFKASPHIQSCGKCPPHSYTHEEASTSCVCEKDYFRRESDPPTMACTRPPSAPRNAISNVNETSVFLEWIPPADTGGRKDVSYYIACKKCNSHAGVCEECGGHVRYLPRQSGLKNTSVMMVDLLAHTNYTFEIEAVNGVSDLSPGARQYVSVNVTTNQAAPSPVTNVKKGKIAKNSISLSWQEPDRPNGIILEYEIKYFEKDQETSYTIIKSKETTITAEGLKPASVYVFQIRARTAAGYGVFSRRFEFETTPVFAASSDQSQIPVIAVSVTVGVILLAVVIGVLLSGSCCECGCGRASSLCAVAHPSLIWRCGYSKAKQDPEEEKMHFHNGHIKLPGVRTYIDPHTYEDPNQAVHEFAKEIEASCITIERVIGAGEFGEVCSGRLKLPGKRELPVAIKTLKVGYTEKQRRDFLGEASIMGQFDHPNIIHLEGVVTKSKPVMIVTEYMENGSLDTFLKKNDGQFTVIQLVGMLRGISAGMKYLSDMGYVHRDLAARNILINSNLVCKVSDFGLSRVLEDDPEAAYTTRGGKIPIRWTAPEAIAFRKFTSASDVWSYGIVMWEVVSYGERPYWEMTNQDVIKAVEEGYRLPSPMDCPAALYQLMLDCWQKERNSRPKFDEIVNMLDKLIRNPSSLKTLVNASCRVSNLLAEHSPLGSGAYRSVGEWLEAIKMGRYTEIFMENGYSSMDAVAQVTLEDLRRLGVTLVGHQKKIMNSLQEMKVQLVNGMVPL

`CC[C@H](C)[C@@H]([C@@H](CC(=O)N1CCC[C@H]1[C@H](OC)[C@@H](C)C(=O)N[C@H](C)[C@@H](O)c1ccccc1)OC)N(C)C(=O)[C@@H](NC(=O)[C@H](C(C)C)N(C)C(=O)OCc1ccc(NC(=O)[C@H](CCCNC(N)=O)NC(=O)[C@@H](NC(=O)CCCCCN2C(=O)CC(SC[C@H](NC(=O)[C@H](CC(=O)O)NC(=O)[C@H](Cc3ccc(O)cc3)NC(=O)[C@H](Cc3c[nH]c4ccccc34)NC(=O)[C@@H](N)CCCNC(=N)N)C(=O)O)C2=O)C(C)C)cc1)C(C)C` (stereo partly shown): concentration “not detected” (C57BL/6 mouse, healthy, liver; intraperitoneal, 2.5 mg/kg, 1 h).
`CC(C)C[C@H](NC(=O)[C@@H](N)Cc1ccccc1)C(=O)N[C@@H](C)C(=O)N[C@H]1CSCc2cccc(n2)CSC[C@@H](C(=O)N[C@H](C(=O)NCC(=O)N[C@@H](CO)C(=O)N[C@@H](Cc2c[nH]c3ccccc23)C(=O)N[C@@H](CCCCNC(=O)CN2CCN(CC(=O)O)CCN(CC(=O)O)CCN(CC(=O)O)CC2)C(N)=O)[C@@H](C)O)NC(=O)[C@H](Cc2c[nH]cn2)NC(=O)[C@H]([C@@H](C)O)NC(=O)[C@H](CCC(=O)O)NC(=O)[C@@H]2CCCN2C1=O` [gallium-68 labelled] gave a tissue uptake of 30 ± 3 %ID/g (gamma counting; C57BL/6J mouse, normal, kidney; iv, 1.85 MBq, 2 h).
`CS(C)(=O)=Nc1ccc(-c2ccc(-c3nc4cc(O[C@@H]5CO[C@H]6[C@@H]5OC[C@H]6O)[nH]c4cc3F)cc2)cc1` has an inhibition of 7% (EPHA5 (Homo sapiens, UniProt P54756); enzyme activity, inhibitor; 10 µM).
For `CCCCCCCCCCCCCCC(=O)N[C@@H](CCCCNC(=O)CN1CCN(CC(=O)O)CCN(CC(=O)O)CCN(CC(=O)O)CC1)C(=O)NCCCC[C@@H]1NC(=O)[C@@H](Cc2ccccc2)NC(=O)[C@H](CC(=O)O)NC(=O)CNC(=O)[C@H](CCCNC(=N)N)NC1=O` [indium-111 labelled], the tumour uptake was 9.96 ± 1.84 %ID/g (female BALB/c nude mice, U-87 MG xenograft, tumour; intravenous, 4 h).
For `Cc1cc(O)cc(C)c1C[C@H](N)C(=O)N[C@H](CCCNC(=N)N)C(=O)N[C@@H](Cc1ccccc1)C(=O)N[C@@H](CCCCNC(=O)CN1CCN(CC(=O)O)CCN(CC(=O)O)CCN(CC(=O)O)CC1)C(N)=O` [indium-111 labelled], the logD was -4.26 ± 0.15 (pH 7.4).
With `CC[C@H](C)[C@H](NC(=O)[C@H](CO)NC(=O)[C@H](Cc1ccc(O)cc1)NC(=O)[C@H](Cc1ccc(O)cc1)NC(=O)[C@H](CC(N)=O)NC(=O)CNC(=O)[C@H](CO)NC(=O)[C@H](Cc1ccc(O)cc1)NC(=O)[C@H](CO)NC(=O)[C@H](CO)NC(=O)[C@H](CC(N)=O)NC(=O)COCCOCCNC(=O)CN1CCN(CC(=O)O)CCN(CC(=O)O)CCN(CC(=O)O)CC1)C(=O)N[C@@H](CC(C)C)C(N)=O` [copper-64 labelled] the tissue uptake was 12.2 %ID/mL (dynamic PET; KPC mouse Ptf1a-CreER tdTomato, pancreas; intravenous, 4.6 MBq/mouse, 6.5 min, 84 d after tamoxifen).
For `CCCCCCCCCCCCCCCCCCCCCCCCCC(=O)O[C@H](CCCCCCCCCCCCCC)[C@@H](O)[C@H](CO[C@H]1O[C@H](CO)[C@H](O)[C@H](O)[C@H]1O)NC(=O)OCOC(=O)CCCCCn1cc(CCC(=O)N[C@@H](Cc2ccccc2)C(=O)N[C@@H](Cc2ccccc2)C(=O)N[C@@H](CCCNC(=N)N)C(=O)N[C@@H](CCCCN)C(=O)N[C@@H](CO)C(=O)N[C@H](C(=O)N[C@H](C(=O)N[C@@H](CC(N)=O)C(=O)N[C@@H](Cc2ccccc2)C(=O)N[C@@H](CCC(=O)O)C(=O)N[C@@H](CCCCN)C(=O)N[C@@H](CC(C)C)C(=O)O)[C@@H](C)CC)[C@@H](C)CC)nn1`, the α-GalCer released was < 0.05% (HPLC-ESI-MS/MS; aqueous ammonium acetate; 10 µg/mL, eight days, pH 5.0, 20 °C).
For `CC(C)(C)C(=O)OCOP(=O)(OCOC(=O)C(C)(C)C)C1CCCN(O)C1=O` (stereo not shown), the log GI50 was -6.22 log M (COLO 205).
With `O=C1NC2(CC2)COc2ncc(F)cc2[C@H]2COCCN2c2ccn3ncc1c3n2` the serum sodium was 144 ± 2 mmol/L (Sprague-Dawley rat, female, serum; oral, 10 mg/kg/day, end of recovery, 4-week subacute toxicity).
`CC(=O)N[C@@H](CC(C)C)C(=O)N[C@H](C(=O)N[C@@H](Cc1ccccc1)C(=O)N[C@]1(C)CCCCCC/C=C/CCC[C@@](C)(C(=O)N[C@@H](C)C(=O)N[C@@H](C)C(=O)N[C@@H](C)C(=O)N[C@@H](C)C(=O)N[C@@H](C)C(=O)N[C@H](C)C(N)=O)NC(=O)[C@H](CC(C)C)NC(=O)[C@H](CCCCNC(=O)CCNC(=O)C[C@@H]2N=C(c3ccc(Cl)cc3)c3c(sc(C)c3C)-n3c(C)nnc32)NC(=O)[C@H](C)NC(=O)[C@H](Cc2c[nH]c3ccccc23)NC(=O)[C@H](Cc2ccc(O)cc2)NC(=O)[C@H](C)NC1=O)[C@@H](C)O` gave a half-life of 5.33 h (male C57BL/6 mouse, plasma; intraperitoneal, 3 mg/kg).
Under “time to maximum uptake”, `CC(C)C[C@H](NC(=O)[C@@H]1CCCN1C(=O)[C@H](CCCCN)NC(=O)[C@@H](N)CO)C(=O)N1CCC[C@H]1C(=O)N[C@@H](CCC(=O)O)C(=O)N[C@H](C(=O)N[C@H](C(=O)N[C@@H](CC(=O)O)C(=O)N[C@@H](CCC(=O)O)C(=O)N[C@@H](Cc1ccc(O)cc1)C(=O)NCC(=O)NCCOCCOCCOCCOCCC(=O)N[C@@H](CCCCNC(=O)CC[C@H](C(=O)O)N1CCN(CC(=O)O)CCN(CC(=O)O)CC1)C(=O)N1CCN(CCCN(C)c2ccc3nccc(C(=O)NCC(=O)N4CC(F)(F)C[C@H]4C#N)c3c2)CC1)[C@@H](C)O)C(C)C` [copper-64 labelled] is recorded as ≥ 60 min (PET; NMRI nude mouse, HT-1080 hFAP xenograft, tumour; intravenous).
`CC(C)C[C@@H]1NC(=O)[C@H](CC(=O)O)NC(=O)CNC(=O)[C@H](CCCNC(=N)N)NC(=O)[C@H](Cc2ccccc2)NC(=O)[C@H](CCCCNC(=O)CCc2cn(CCCNC(=O)CCC(C(=O)O)N3CCN(CC(=O)O)CCN(CC(=O)O)CCN(CC(=O)O)CC3)nn2)N(C)C(=O)[C@H]2CCCN2C(=O)[C@H](Cc2ccccc2)NC(=O)[C@H](C)NC1=O` (stereo partly shown) has a tissue-to-tissue ratio of 15.5 ± 2.6 (female CB17 SCID mice, tumour and pancreas; intravenous, dose not given, 90 min, 177Lu-labelled; relative to: tumour over pancreas).
`C[C@@H](O)[C@@H]1NC(=O)[C@@H](NC(=O)CCOCCOCCOCCOCCNC(=O)c2ccc(NN)nc2)CSSC[C@@H](C(=O)O)NC(=O)[C@H](Cc2c[nH]cn2)NC(=O)[C@H](CO)NC(=O)[C@H](Cc2ccccc2)NC(=O)[C@@H]2CCCN2C(=O)[C@H](CO)NC(=O)[C@@H]2CCCN2C1=O` [technetium-99m labelled] gave a tissue uptake of 0.16 ± 0.04 %ID/g (mouse HCT-116 xenograft, blood; intravenous, 37 MBq, postmortem after imaging).
`COc1ccccc1-c1n[nH]c2nc(NC3CCN(C(=O)Cc4ccc(F)cc4F)CC3)ncc12` has a relative abundance of 0.94 (bead binding, competition bead pull-down, item: LINJ.23.0220; Leishmania donovani axenic amastigote extract; 10 µM; relative to: vehicle).
The tissue-to-tissue ratio of `CC(C)C[C@@H]1NC(=O)[C@H](CC(=O)O)NC(=O)CNC(=O)[C@H](CCCNC(=N)N)NC(=O)[C@H](Cc2ccccc2)NC(=O)[C@H](CCCCNC(=O)CCc2cn(CCCNC(=O)CN3CCN(CC(=O)O)CCN(CC(=O)O)CCN(CC(=O)O)CC3)nn2)N(C)C(=O)[C@H]2CCCN2C(=O)[C@H](Cc2ccccc2)NC(=O)[C@H](C)NC1=O` is reported as 1.4 ± 0.9 (female CB17 SCID mice, tumour and liver; intravenous, dose not given, 90 min, 177Lu-labelled; relative to: tumour over liver).
For `N=C(N)NCCC[C@@H]1NC(=O)[C@H](CCCCNC(=O)CCC(NC(=S)Nc2ccc(CC3CN(CC(=O)O)CCN(CC(=O)O)CCN(CC(=O)O)CCN3CC(=O)O)cc2)C(=O)NCCCC[C@@H]2NC(=O)[C@@H](Cc3ccc(O)cc3)NC(=O)[C@H](CC(=O)O)NC(=O)CNC(=O)[C@H](CCCNC(=N)N)NC2=O)NC(=O)[C@@H](Cc2ccc(O)cc2)NC(=O)[C@H](CC(=O)O)NC(=O)CNC1=O` (stereo partly shown) [scandium-44 labelled], the tissue uptake was 1.63 ± 0.47 %ID/g (PET imaging ROI; female athymic nude mice, U-87 MG xenograft, kidney; intravenous, 2 h).
